Measured values pooled from the literature.
Each numbered part is a random draw from the data of one study; scales do not carry over between parts.

Block 1
Target: RING finger protein unkempt homolog, zinc fingers 1-6, GST-SBP tag (UNK, Homo sapiens, UniProt Q9C0B0, residues 30-357)
Sequence of UniProt Q9C0B0 (30-357, looked up): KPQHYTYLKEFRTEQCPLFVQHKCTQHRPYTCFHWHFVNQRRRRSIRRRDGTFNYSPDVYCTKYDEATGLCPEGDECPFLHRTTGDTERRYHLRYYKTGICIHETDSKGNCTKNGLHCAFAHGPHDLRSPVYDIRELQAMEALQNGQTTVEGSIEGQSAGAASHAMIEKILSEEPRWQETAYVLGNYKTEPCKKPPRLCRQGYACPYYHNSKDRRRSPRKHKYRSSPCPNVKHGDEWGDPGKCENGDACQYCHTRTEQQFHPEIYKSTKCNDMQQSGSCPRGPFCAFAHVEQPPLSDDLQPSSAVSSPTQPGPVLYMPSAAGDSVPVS
Technique: RNA Bind-n-Seq
Form: RNA
Matrix: in vitro
Tested at: not given
Setting: RNA with constant flanks, human and mouse sites, ends assumed
Reference: input RNA pool
Reading: higher = stronger binding
Strand	bound/input enrichment
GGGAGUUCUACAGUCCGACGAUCCUGAGGUUGUGGGGUGAUCAUGGGCAAGAGGCUUUAGAAUCUGCUCAUGUUUGCCUAAUAAAUGCAACAGCCACAGGAACUGAAAUUCUUAAAAACUUGGUACUACCAGGUAUUGGUUCGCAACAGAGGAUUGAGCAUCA	0.138 ratio
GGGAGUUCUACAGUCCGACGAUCUAAAUCCAUUUGUAAGCAUUUAUCCCAUAUAUUUUAAAUUCAAGAAAAAUUGUGUUUAUCUUUAGAAUUUUGUAUUCAAUACUUUAUGUACUAUGUGACUCAUGCUUCUGGAUAAAUAAACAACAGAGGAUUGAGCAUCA	11.7 ratio
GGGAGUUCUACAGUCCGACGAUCAGGACAUCGAGACCCCGGGGCUGCCGCGCCCCCUCUCCCUUCGCAGCCUGGCCCGGCUGCACGGUGGCGGUCCUGAGCCCCCGCCUCCGCCCAAGGAUGGAGAUGCAGCGCAAACGCCCCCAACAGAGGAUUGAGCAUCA	0.138 ratio
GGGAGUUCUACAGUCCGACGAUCGACCACAUUCAGUUUGUGCAGAAAAAGCCACCCCGUGAGAAUGGCCAUAAGCAGAUAAGUGGCAGUUCCACUGGAUGUCUCUCUUCUCCAAAUGCUUCAAUGCAAAGCCCUAAGCAUGAGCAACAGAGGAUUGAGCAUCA	0.183 ratio
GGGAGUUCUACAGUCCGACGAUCAUGUACAGGAAGAGCCAAGCCACAGGCUUUCCAUCACUUAUUACAAUUUUCUCUGCCCCCAAUUACCUAGAUGUCUAUAACAAUAAAGCUGCUGUGUUGAAAUAUGAAAACAAUGUCAUGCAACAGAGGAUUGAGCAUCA	14.6 ratio
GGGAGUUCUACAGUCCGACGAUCCAAAUAAAAAAUUUUGGUCAUUUGGUACUGACUUUCUCUCUCUCUCUCUCUCUCUUUUUUUUUUUUGACAGAGUCUCGCACUGUUGCCUGGGCUGGAAUGCAGUGGUGCGAUCUCGGCUCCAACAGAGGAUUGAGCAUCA	0.387 ratio
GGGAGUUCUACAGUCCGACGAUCGUGACCACAGAUGCAACCCUUUCUAGGCUCUACACUGUAAAUAAUUCUAUAAAUACUUUGAUUUUAAAAAAGAACUAUUUUUGAUUUGGGGAGGCAGGCUUUUAUAUACAUGAGCCUUUACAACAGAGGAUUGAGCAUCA	0.561 ratio
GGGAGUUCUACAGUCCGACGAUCAAUUGAAAUGGCUCCUGUAUCACAUACGGAGGUCUUGUGUAUCUGUGGCAACAGGGAGUUUCCUUAUUCACUCUUUAUUUGCUGCUGUUUAAGUUGCCAACCUCCCCUCCCAAUAAAAAUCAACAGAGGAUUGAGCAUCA	0.285 ratio

Block 2
Target: RNA binding protein fox-1 homolog 2, RRM domain, GST-SBP tag (RBFOX2, Homo sapiens, UniProt O43251-10, residues 100-194)
Technique: RNA Bind-n-Seq
Form: RNA
Matrix: in vitro
Tested at: 365 nM
Setting: natural RNA segment, single round, ends assumed
Reference: no-protein control
Reading: higher = stronger binding
Strand	RBNS enrichment (R)
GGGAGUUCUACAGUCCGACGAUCCAAUUACAGCGUGUGUGCAUGGAUGUGUGUGGGGGGCGUGCCUCUCAGAAACGCGGCCAGAAGACAAGCAGGGAAGUGAAAGGUCCCAGGCACACACCCUGCCCAUUGCAUGGAAUUCUCGGGUGCCAA	2.26
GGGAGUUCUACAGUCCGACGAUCGCACAUCACACACGUUCUCCUUGGAAGAGAGAAGCAGUACAUCCCGGUUGAGAGGUCACAAAGCAUUAGUUUGUGUGUGUGUGUGUGUGUGUGUGUGUGUGUGUGUGUGUUGGAAUUCUCGGGUGCCAA	2.81
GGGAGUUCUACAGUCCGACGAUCCUGUGCCAUGUCUGUCAUUCCUGUUGAACAGACUCUUCCUGUCUGGUGACCACCUAUGCUUCAGUGCAUUUUCUAAACAAUUUCUCAAACUGAUCUGCUCCCGGGUGCUUUGGAAUUCUCGGGUGCCAA	0.928
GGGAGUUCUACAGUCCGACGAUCCCAAUGAUGACCUGACCAUGCCUGCCUGCUGAUCAGUUAACUGGUAAUCGCCUUUGCUUGCCUGUCGUCAGUGCAGCGAGCUGAGGCACUUGUCCGUUCGUCUUACCAUCUGGAAUUCUCGGGUGCCAA	0.417
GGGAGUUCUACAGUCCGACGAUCGACUGUGGAACCGUUUUUAUGGAUUUUGCCCCUGCUUGCUUUCAUCCUGUAACCUAGCCUGUAUUAUACAAGAAAACUUGAGCAGGACAUUUCAAGAGAAUAUGUUGGCCUGGAAUUCUCGGGUGCCAA	3.58
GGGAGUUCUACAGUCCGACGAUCUAAACACUGAUCUGGAAAUUGGUCCUGUGAUGCACGUGCUUUGCCCUGGAUGCACCUGAACUCGUCCCCCUCGUCGAGGGGCAGGAGGGCAUGGACAUGGGCUUCUUCACUGGAAUUCUCGGGUGCCAA	0.773
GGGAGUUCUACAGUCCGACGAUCUGGGUGUUUGCAUCAUAAUGUCAUCUUGGGAAACAGAAAAGAAGGUGGGCCAACCCUCAUGUCCCCCACUCCCUUGCAUUAUUUCUUUGUGUCUUGUUCAGGAGAAAAGAUGGAAUUCUCGGGUGCCAA	4.97
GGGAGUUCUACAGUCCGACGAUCUGUAGAUAAAGACUUAAAUUUUUGUGCAACAUAGUGGUGUUAAAGCACACAUCCAUUGGACUAUGCAAAUCAAUUUCUACUAGCAGCACUGAGCAACUGGGCACGUGCUAUGGAAUUCUCGGGUGCCAA	0.903
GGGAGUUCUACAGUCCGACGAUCAAUGAAGAAAUGAAUUGCCAAAACCACUGAGGCCUCCUCUCAAAACAAAACAUAUAAAAGUAACAGAAUCUAGCUGGGCUAUGGUGGGACACAGCUUUAAUCUCAGGAACUGGAAUUCUCGGGUGCCAA	0.704

Block 3
Target: Ras GTPase-activating protein-binding protein 1, C-terminal RGG region (G3BP1, Homo sapiens, UniProt Q13283)
Sequence of UniProt Q13283 (whole entry, looked up): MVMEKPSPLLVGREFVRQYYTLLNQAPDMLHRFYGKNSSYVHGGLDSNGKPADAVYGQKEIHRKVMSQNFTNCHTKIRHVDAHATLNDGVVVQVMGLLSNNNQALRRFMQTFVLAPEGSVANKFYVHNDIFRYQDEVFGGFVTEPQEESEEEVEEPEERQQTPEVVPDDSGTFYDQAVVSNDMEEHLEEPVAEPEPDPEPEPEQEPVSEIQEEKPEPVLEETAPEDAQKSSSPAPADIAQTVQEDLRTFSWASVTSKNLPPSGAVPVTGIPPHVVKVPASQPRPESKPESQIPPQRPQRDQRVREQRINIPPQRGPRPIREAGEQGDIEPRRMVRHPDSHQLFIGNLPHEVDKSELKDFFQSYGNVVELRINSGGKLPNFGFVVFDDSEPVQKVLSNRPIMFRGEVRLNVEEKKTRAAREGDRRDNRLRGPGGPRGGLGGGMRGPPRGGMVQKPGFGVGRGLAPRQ
Technique: RNA Bind-n-Seq
Form: RNA
Matrix: in vitro
Tested at: 1 µM
Setting: whole 134-nt RNA, ends assumed
With: 150 mM KCl
Reference: input library
Reading: higher = stronger binding
Strand	log2 enrichment
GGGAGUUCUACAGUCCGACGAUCUUCAGGAUUGUGAGGGUGAAACUCCCAUUCACAAGGCAGCUCGCUCUGGGAGCCUAGAAUGCAUCAGUGCCCUUGUGGCGAAUGGGGCUCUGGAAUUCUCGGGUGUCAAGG	-1.65
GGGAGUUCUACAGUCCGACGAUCGUCCUGUGCUACACAUCGUAUGUACCGAAUCGGGGUUUUGGGGUUUUGGGUUUUGGGGAAAGUAUUAUGUUACGCCGUUCGGAUCUGCACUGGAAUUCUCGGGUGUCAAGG	0.796
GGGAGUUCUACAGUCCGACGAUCGUCCUGUGCUACACAUCGUAUGUACCGAAUCGGUUUUUUGGGUUUUUUGGUUUUUUGGGAAAGUAUUAUGUUACGCCGUUCGGAUCUGCAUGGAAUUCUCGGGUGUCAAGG	-1.49
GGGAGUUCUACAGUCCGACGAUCCCUGUGCUACACAUCGUAUGUACCGAAUCAAACCCCCCCAAACCCCCAAAUUUUUUUAAAAAAGUAUUAUGUUACGCCGUUCGGAUCUGCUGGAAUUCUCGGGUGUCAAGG	-1.04
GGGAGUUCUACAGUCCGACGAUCCUGUGCUACACAUCGUAUGUACCGAAUCGGGCCCCCCCGGGCCCCCCCGGGCCCCCCCGGGGAAAGUAUUAUGUUACGCCGUUCGGAUCUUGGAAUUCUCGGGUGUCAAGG	-2.43
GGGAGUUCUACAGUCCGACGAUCCUGUGCUACACAUCGUAUGUACCGAAUCGGCCCCCCCGGGCCCCCCCGGGGCCCCCCCGGGGAAAGUAUUAUGUUACGCCGUUCGGAUCUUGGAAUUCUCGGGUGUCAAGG	-2.42
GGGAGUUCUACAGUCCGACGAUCCUCAAGUCCUGUGCUACACAUCGUAUGUACCGAAUCGGGCGGGGCGGGCGGGGAAAGUAUUAUGUUACGCCGUUCGGAUCUGCACUUCCAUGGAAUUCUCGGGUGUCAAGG	2.44
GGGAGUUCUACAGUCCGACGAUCCCUCAAGUCCUGUGCUACACAUCGUAUGUACCGAAUCGGAGGGGAGGGAGGGGAAAGUAUUAUGUUACGCCGUUCGGAUCUGCACUUCCAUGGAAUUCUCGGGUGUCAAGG	1.31
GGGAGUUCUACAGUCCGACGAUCAGUCCUGUGCUACACAUCGUAUGUACCGAAUCGGUUUUUUGGUUUUUUGGUUUUUUGGAAAGUAUUAUGUUACGCCGUUCGGAUCUGCACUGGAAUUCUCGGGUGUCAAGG	-1.68
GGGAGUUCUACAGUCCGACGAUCCAAGUCCUGUGCUACACAUCGUAUGUACCGAAUCGGGGAAAGGGGAGGGGUGGGGAAAGUAUUAUGUUACGCCGUUCGGAUCUGCACUUCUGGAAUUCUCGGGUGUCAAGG	3.06

Block 4
Target: Hepatocyte nuclear factor 3-alpha (Foxa1, Mus musculus, UniProt P35582, residues 1-468, full length assumed)
Technique: EMSA with sequencing
Form: double-stranded DNA, one strand shown
Matrix: in vitro
Tested at: 10 and 20 nM
Setting: whole designed probe, mean of two concentrations, ends assumed
Reference: negative control set to 0
Reading: higher = stronger binding
Construct (chain): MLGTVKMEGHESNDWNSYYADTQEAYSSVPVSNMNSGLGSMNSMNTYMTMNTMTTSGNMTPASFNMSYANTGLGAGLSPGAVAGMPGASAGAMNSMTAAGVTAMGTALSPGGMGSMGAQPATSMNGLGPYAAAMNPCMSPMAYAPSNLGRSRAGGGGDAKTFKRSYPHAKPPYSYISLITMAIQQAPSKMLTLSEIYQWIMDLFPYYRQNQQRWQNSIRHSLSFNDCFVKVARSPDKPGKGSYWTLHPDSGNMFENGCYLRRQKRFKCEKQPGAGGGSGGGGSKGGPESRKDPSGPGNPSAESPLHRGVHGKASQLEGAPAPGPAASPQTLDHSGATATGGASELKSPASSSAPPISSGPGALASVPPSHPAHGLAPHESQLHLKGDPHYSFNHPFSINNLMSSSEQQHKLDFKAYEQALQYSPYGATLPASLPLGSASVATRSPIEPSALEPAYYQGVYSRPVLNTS
Strand	normalised bound fraction [ratio]
GTGAGCGGTGCCCATTGATGGGGAACTGAGGCCATTAATTATAGTGAGACGTATTATAAGATTATTTTCTTCTCCTTTGAGTACTATTTTCATCTCCTTCAAGTTTTTTCTTTCCAGATAGATTATTCTGTTCTCTGTGCTTCATGACAGGTCCTTTCCCACATGGCTTGATGTGTGGCTGGCTGTTCATTTTTAGGAGTGAGGCATTATAAACAGGCCTTTCACTGGGATCGTGGGGAC	-0.061
GTGAGCGGTGCCCATTGATGGGGAACGCTCAAGGAGATATCCCTAAACTGAGGATGGCTTGAAAAATCACAACTTTACATAAAATTTTAAATCATCCACACAAATGAGATCATATTGCTGTTTACATTGTCAGGTGTCTTAACTCATGTCACCGATAAGTAGAAAATGGGTATAAGTGCTGGCACTGACTAAGTCAATAAAAATGAACTTATGTGAATTTTTCACTGGGATCGTGGGGAC	0.438
GTGAGCGGTGCCCATTGATGGGGAACATCTCTGGGTTCTTCCCTCTGAGAATCTCCCCCACCTCAGTTAAACTGCGCATCATAACTGCATGGCTATTTGAGATATTATTTTTAAATAACAAGATTACTTTGTGAAAGCTCTTAGTTAGGGAAACCAGAGGTCAGCATTGCAGTTAGATTACAGATCTGTGAAATGGCTTTGCCCTGCTACCCCCTTATTTTTCACTGGGATCGTGGGGAC	-0.0359
GTGAGCGGTGCCCATTGATGGGGAACGACACCATTTCGAACAAAACAAAACAGTTGCTCCCTTCCCTCTTGTTCCTCCCACTATTGCTGTCATTGCAAGCTCCTAGGAGCTGCCCTGTAAATTACATTGCAGTGGGCATGACTCAGGGAAGCAGCAGGCAGGGAGGAGGATGGGAAGCAAGAACCCAGCTGGGGCTAAGCAAGGTCCAGCTCATAATATTTTCACTGGGATCGTGGGGAC	-0.0274

For quick reference, copied from above (block 1):
Strand	bound/input enrichment
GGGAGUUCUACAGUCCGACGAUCGACCACAUUCAGUUUGUGCAGAAAAAGCCACCCCGUGAGAAUGGCCAUAAGCAGAUAAGUGGCAGUUCCACUGGAUGUCUCUCUUCUCCAAAUGCUUCAAUGCAAAGCCCUAAGCAUGAGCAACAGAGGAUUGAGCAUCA	0.183 ratio
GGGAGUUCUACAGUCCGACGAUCAUGUACAGGAAGAGCCAAGCCACAGGCUUUCCAUCACUUAUUACAAUUUUCUCUGCCCCCAAUUACCUAGAUGUCUAUAACAAUAAAGCUGCUGUGUUGAAAUAUGAAAACAAUGUCAUGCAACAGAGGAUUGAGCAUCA	14.6 ratio
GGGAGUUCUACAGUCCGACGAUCCAAAUAAAAAAUUUUGGUCAUUUGGUACUGACUUUCUCUCUCUCUCUCUCUCUCUUUUUUUUUUUUGACAGAGUCUCGCACUGUUGCCUGGGCUGGAAUGCAGUGGUGCGAUCUCGGCUCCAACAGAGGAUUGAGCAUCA	0.387 ratio
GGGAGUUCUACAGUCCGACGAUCGUGACCACAGAUGCAACCCUUUCUAGGCUCUACACUGUAAAUAAUUCUAUAAAUACUUUGAUUUUAAAAAAGAACUAUUUUUGAUUUGGGGAGGCAGGCUUUUAUAUACAUGAGCCUUUACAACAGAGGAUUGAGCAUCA	0.561 ratio
